Measured values from different studies.
Each numbered part is a random draw from the data of one study; scales do not carry over between parts. Substitutions count along the parent as printed.

Series 1
Target: ABI1, truncated, D143A, DHFR fusion (Arabidopsis thaliana)
Technique: DHFR PCA, deep sequencing
Medium: yeast
Notes: methotrexate growth selection, single substitutions
Added: (+)-ABA 710 µM
Reference: wild-type fitted maximum
Direction: higher = stronger binding
Quantity: relative binding score
Parent: PYL1, truncated, DHFR fusion (Arabidopsis thaliana); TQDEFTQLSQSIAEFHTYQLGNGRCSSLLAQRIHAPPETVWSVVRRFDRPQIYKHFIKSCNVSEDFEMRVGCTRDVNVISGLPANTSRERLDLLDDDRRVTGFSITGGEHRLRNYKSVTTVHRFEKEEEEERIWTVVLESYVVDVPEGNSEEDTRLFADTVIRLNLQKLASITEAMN; partner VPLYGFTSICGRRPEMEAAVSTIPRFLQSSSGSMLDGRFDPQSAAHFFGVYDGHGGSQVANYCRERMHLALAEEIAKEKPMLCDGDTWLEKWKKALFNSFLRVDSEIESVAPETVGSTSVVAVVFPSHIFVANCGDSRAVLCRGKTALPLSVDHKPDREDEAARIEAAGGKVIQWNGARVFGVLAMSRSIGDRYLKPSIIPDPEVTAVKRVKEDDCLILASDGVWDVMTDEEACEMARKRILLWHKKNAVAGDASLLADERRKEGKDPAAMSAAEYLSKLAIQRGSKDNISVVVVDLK
H16I: 19.1%
G108D: 50.1%
V70H: 88.5%
N22S: 105%
K168M: 94.6%
G21F: 89.7%
G21T: 98.9%
R46A: 100%
R123Y: 98.8%
C25F: 87.8%
E147Y: 96.5%
E152A: 101%
G102T: 61%
R32Q: 101%
I33F: 45.7%

Series 2
Target: Hepatocyte nuclear factor 3-alpha (Foxa1, Mus musculus, UniProt P35582, residues 1-468, full length assumed)
Technique: EMSA with sequencing
Form: double-stranded DNA, one strand shown
Medium: in vitro
Concentration: 10 and 20 nM
Notes: whole designed probe, mean of two concentrations, ends assumed
Reference: negative control set to 0
Direction: higher = stronger binding
Quantity: normalised bound fraction
All sequences stand within: GTGAGCGGTGCCCATTGATGGGGAAC … TTTCACTGGGATCGTGGGGAC
Residues (chain): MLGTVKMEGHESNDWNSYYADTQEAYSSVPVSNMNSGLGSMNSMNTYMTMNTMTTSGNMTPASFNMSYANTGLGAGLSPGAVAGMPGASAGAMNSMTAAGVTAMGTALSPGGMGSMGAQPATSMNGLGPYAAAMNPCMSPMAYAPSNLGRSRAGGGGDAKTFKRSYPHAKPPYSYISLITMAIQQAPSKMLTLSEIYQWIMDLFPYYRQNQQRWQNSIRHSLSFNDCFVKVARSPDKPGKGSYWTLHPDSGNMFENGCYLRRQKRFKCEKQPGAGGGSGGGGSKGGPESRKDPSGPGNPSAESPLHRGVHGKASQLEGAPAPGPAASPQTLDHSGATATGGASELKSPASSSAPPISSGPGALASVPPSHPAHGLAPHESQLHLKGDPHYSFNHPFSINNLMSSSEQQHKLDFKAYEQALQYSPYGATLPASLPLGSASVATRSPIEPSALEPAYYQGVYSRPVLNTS
AGCGCAGCCTAGAGGAGATAGGTGATGCCTGAAGCCATGAGAAGGGGTGTTATCTCTGCAGGAAGAAGAATTGCAACACTCCTCCCAGCTGAGCAATCTGTCTGGGCTGGGATGTGAGTGGTATCACACTCTGCACTCACTTCCTCCTTCAGTGGTCATTTGAGAGTTCACTGGGGCTGACCTACCCCATTGG: -0.0829 ratio
AGTTGGGATTAAAAAAACAAAATCCAAAATCTGGGTTTCAGTGTCATCTGTAAAATGTAGATATAATGACTGTGGTGAGTATCTGTGTGTGCATGTGTACATATGTGTATGAGTTTATGTAGGAGTACACATATACTTAGAAGCACAAATGAGTCATGCTCTATACAACATTGTGCAGCTCCTTTTTTACAGA: 0.172 ratio
TAGAGAAAGAAAAGAGAAACCAGGAATAATCAGTGAATGATAAGCAAGTAACATGGTTTAAAAGCATTCCAGGAGTTCCATTTTTAAGCACTCTTGTTTACTTAGTTTTGCTACCCACTTGTTGCTTTGGAAGAGTTTCTATTAATTAGATGTCATTTTTCAAAAGTGCGTACTTAATTGTTATATGAATTAC: 0.438 ratio
TCTCCCCTGCAGGAGTTTGGACTAATCAGGTCACTACACCCTGACACAGCAGTCTCCAGTCTCTACCACTCATTGTTTGCAACATGACGTAATGTCATCTGACCACAGAGAAGTTAGCAACAGGGAAGGGAAAACACTTTAATCTCAAGGTCATCCCCAGGGTTCAGCAGGACATATATCCTATATCGAATCA: -0.0108 ratio
ACATTCTTATAACCTATATGACATTATATTAAATTCCATTTAAAACCGTAGCATAAGAAGCATTGTATCTGGCACAAAAATACAAAGGGATTTAGATTACTGAGAGACAAGATAAACTATATACTAGAACTAAAAGCTCTATAAAATATTTAATGAAAAATTCTGTAGTAATTTTATGTGAGGTTTTTTAAAC: 0.0387 ratio

Series 3
Target: Interferon regulatory factor 7, full length, phosphomimetic (IRF7, Homo sapiens, UniProt Q92985, residues 1-503, S471D/S472D/S475D/S476D/S477D/S483D/S484D/S487D)
Technique: protein-binding microarray
Form: double-stranded DNA, one strand shown
Medium: in vitro
Concentration: 2200 nM top
Notes: 60-bp whole probe
Added: salmon DNA 0.4 mg/ml
Reference: random background probes
Direction: higher = stronger binding
Quantity: fitted relative affinity
All sequences stand within: GCCTAGCAC … GTCTTGATTCGCTTGACGCTGCTG
Residues (chain): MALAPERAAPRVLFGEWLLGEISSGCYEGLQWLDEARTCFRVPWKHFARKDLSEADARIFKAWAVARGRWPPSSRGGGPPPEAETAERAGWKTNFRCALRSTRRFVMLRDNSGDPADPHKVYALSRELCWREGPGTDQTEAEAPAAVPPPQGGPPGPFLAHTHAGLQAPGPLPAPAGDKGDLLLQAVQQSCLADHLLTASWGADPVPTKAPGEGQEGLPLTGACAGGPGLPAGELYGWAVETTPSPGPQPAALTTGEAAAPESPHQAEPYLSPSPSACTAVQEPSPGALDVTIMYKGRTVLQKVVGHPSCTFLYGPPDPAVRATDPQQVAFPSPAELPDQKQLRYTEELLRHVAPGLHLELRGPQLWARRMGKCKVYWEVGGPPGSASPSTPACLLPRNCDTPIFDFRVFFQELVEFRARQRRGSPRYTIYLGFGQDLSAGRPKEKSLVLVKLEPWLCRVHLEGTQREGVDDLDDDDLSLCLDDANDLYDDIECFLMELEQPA
TACGGTATCGGGACTGGGGACGTGCTA: -0.296 z-score
CTCTACATGTGTTTAAAAAGGTGCTAG: 0.488 z-score
GAGGATATCAGACTGGAGACGTGCTAG: -0.288 z-score
TTAGGACTGGGACTAGGTTAGTGCTAG: -0.783 z-score
ATTTGTCCCTATTTAAGAGAGTGCTAG: 1.48 z-score
CACGGTTTCCTTTTCCTGACGTGCTAG: 5.45 z-score
TCAGCTTACAATATAAAACTGTGCTAG: 0.071 z-score
TCATTTTTTTTTTACTTACTGTGCTAG: 2.38 z-score
TTAGGACTGCTACTGTTTTAGTGCTAG: 0.39 z-score
TTAGAACTGAGACTGTATTAGTGCTAG: -0.677 z-score
TTAGGTATCCTTATCCTTTGGTGCTAG: 0.506 z-score
TACGATTTCAGTCTCGAGACGTGCTAG: 1.11 z-score
GAACCTTGGGCTCTAGGTTCGTGCTAG: 0.805 z-score
GACGGTATCGGGTAGCGGGACGTGCTA: -0.408 z-score
GACGATATCAGTAGCGAGACGTGCTAG: -0.183 z-score
TCACCTTGGAAGTATGACACTGTGCTA: 0.641 z-score

Series 4
Target: CCNE1, cyclin fold, Cln2 fusion (human)
Technique: yeast growth competition, sequencing
Medium: yeast
Notes: weak parent motif
Reference: not given
Direction: higher = stronger binding
Quantity: normalised enrichment score
Parent: SAMHD1 docking peptide (human); ASKSRVQLFKDDP
Q7A: -0.237
K3T: -0.112
S2L: 0.105
L8W: 0.462
Q7P: -0.0264
Q7D: -0.354
Q7H: 0.162
R5T: -0.0818
L8A: -0.19
D12K: 0.0246
L8C: -0.332
L8Y: -0.0824
S4N: 0.311
V6G: 0.0133
L8T: 0.219
S2Y: 0.331
K10H: -0.0736
K10Y: -0.197

Repeated from above (series 1):
R46A: 100%
E147Y: 96.5%
R123Y: 98.8%
E152A: 101%
